Assay results gathered from unrelated publications.
Parts stem from different laboratories: compare values within a part only.

Sample 1 — technique: protein binding microarray; molecule type: double-stranded DNA, one strand shown; sample: in vitro; tested at: not given; baseline: not given; direction: higher = stronger binding
Target: Histone acetyltransferase KAT6A, both winged helices, GST fusion (KAT6A, Homo sapiens, UniProt Q92794, residues 1-181)
Setting: 8-mer, flanks averaged, mean of 2 arrays, mostly near background
Residues (chain): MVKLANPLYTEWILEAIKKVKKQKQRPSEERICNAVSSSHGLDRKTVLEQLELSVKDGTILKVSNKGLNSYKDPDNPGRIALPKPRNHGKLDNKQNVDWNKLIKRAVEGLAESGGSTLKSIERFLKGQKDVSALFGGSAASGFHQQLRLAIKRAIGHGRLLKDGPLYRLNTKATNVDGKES
`TCAGTCAA` gave an E-score of -0.0939.
The E-score of `ATTGGCGG` is reported as 0.0433.
`ACTTTGTA` has an E-score of -0.129.
`ACTTATCA` has an E-score of -0.136.
The E-score of `CCACAGAC` is reported as -0.108.
`ATGCGGGA` gave an E-score of 0.282.
With `GAGGGTTA` the E-score was -0.0922.

Sample 2 — technique: competition protein-binding microarray; molecule type: double-stranded DNA, one strand shown; sample: in vitro; tested at: 2 µM; together with: Cbf1 competitor, 0.05 µM; direction: higher = stronger binding; all sequences stand within: … GTCTTGATTCGCTTGACGCTGCTG
Target: Phosphate system positive regulatory protein PHO4, full length, GST-tagged (PHO4, Saccharomyces cerevisiae, UniProt P07270, residues 1-312)
Setting: whole 60-bp probe, lowest competitor level
Target sequence (chain): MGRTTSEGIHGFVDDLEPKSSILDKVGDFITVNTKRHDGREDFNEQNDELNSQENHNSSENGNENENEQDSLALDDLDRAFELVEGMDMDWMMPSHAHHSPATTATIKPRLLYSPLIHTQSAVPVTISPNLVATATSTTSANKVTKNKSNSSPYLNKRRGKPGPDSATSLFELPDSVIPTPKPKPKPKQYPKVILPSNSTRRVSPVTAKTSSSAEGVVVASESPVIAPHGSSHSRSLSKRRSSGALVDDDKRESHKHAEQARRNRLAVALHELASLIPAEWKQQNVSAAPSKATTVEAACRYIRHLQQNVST
The fluorescence intensity of `TAAATGGTCTCTTAATGCGTGCCGAATTTTCGTAAT` is reported as 9160 a.u.
With `GCCGCCATTCCCCATCACAATTTTGGGCAGGATAGG` the fluorescence intensity was 3540 a.u.
With `CTAACGAAGGTTTGGAACGTGGGTGACAAGCCAAGT` the fluorescence intensity was 11700 a.u.
For `TCCAGAACTTTTAAGCGCGTGTTCCAGGCGTTGCCG`, the fluorescence intensity was 9390 a.u.
The fluorescence intensity of `GAAATTTTAACGCAGAACGTGCCGAAGAAAAAAAAA` is reported as 14500 a.u.
`AAAGCGGTAATTTACCACGTGTTTTCACATATCTAT` has a fluorescence intensity of 16000 a.u.

Sample 3 — technique: protein-binding microarray; molecule type: double-stranded DNA, one strand shown; sample: in vitro; tested at: 250 nM; setting: 60-bp whole probe; together with: salmon DNA 0.4 mg/ml; baseline: random background probes; direction: higher = stronger binding; all sequences stand within: GCCTAGCAC … GTCTTGATTCGCTTGACGCTGCTG
Target: Interferon regulatory factor 5, full length, phosphomimetic (IRF5, Homo sapiens, UniProt Q13568-2, residues 1-514, K96S/S451D/S453D/S456D/S462D)
For `GAAGATTTCAGTTTCGAGACGTGCTAG`, the log fluorescence was 7 z-score.
For `GACGAACTGAGTATAGAGACGTGCTAG`, the log fluorescence was -0.402 z-score.
The log fluorescence of `GACGAAATGAGTATCGAGACGTGCTAG` is reported as 2.84 z-score.
`TTAGATTTCAGTTCCAATTAGTGCTAG` has a log fluorescence of 2.17 z-score.
With `GACGCTATCGGGACTGGAGACGTGCTA` the log fluorescence was 1.65 z-score.
With `GACGGTCTCGGTATCGGTACGTGCTAG` the log fluorescence was 3.28 z-score.

Further values, each from its own experiment
The fold induction of `PhoQ, residues 284 288 289 292 302 303 QWGLFV` is reported as 0.769 (PhoP, residues 12 14 15 18 19 NIMAP (Escherichia coli, UniProt P23836); Sort-seq, item: YFP reporter; E. coli; PhoQ-PhoP variant library, together with: 10 µM Mg2+; baseline: high Mg2+ state, higher = stronger signaling).

For quick reference, copied from above (sample 3):
The log fluorescence of `GACGAAATGAGTATCGAGACGTGCTAG` is reported as 2.84 z-score.
